Measured values of several laboratories.
Numbered parts are unrelated; each lists some results of a single study.

Series 1 — technique: Sort-seq; item: YFP reporter; sample: E. coli; notes: PhoQ-PhoP variant library; added: 10 µM Mg2+; reference: high Mg2+ state; reading: higher = stronger signaling
Substance: PhoQ, residues 284 288 289 292 302 303 SLSLLA
target | fold induction
PhoP, residues 12 14 15 18 19 NFFVT (Escherichia coli, UniProt P23836) | 2.16
PhoP, residues 12 14 15 18 19 TPWTL (Escherichia coli, UniProt P23836) | 21.1
PhoP, residues 12 14 15 18 19 LHHYF (Escherichia coli, UniProt P23836) | 10

Series 2 — technique: universal PBM; molecule type: double-stranded DNA, one strand shown; sample: in vitro; tested at: 600 nM; reading: higher = stronger binding
Target: Sal-like protein 4, full length isoform A (SALL4, Homo sapiens, UniProt Q9UJQ4, residues 1-1053)
UniProt Q9UJQ4, sequence (whole entry, looked up): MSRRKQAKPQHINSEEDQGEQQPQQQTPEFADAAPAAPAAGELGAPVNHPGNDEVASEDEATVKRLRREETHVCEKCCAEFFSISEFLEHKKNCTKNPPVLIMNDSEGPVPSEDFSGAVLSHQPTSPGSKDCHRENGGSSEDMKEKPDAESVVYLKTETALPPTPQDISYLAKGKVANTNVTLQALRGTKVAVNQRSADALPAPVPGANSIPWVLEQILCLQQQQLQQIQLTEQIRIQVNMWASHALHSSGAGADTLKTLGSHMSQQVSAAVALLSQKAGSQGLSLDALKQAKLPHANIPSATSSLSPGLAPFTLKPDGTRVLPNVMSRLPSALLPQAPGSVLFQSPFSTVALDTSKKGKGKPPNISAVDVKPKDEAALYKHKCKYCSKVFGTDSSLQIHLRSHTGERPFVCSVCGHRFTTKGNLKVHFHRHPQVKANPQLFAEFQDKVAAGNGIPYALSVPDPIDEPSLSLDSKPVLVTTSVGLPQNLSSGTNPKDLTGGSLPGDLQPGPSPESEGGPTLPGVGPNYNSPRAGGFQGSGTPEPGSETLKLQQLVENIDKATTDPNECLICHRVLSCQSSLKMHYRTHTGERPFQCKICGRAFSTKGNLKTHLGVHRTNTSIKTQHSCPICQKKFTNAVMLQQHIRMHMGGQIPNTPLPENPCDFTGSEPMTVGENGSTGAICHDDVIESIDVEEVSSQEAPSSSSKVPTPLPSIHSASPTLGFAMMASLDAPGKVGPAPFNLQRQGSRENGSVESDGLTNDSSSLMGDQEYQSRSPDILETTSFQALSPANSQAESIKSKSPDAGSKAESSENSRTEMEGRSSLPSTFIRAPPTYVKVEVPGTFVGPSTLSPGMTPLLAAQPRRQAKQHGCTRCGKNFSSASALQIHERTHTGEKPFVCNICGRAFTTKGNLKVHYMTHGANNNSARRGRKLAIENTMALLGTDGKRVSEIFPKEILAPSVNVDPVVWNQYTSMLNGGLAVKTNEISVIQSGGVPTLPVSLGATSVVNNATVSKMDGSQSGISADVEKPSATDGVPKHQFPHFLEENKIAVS
Notes: 8-mer, flanks averaged, mean of replicates
Sequence | E-score
TGCGCACA | -0.0468
GCGGTGCC | -0.361
CACCTATC | 0.0194
CACACGGC | -0.225
ACAGGGTC | -0.263
CTTTGATA | 0.25
GAGCCGCA | -0.258
AACCACAC | 0.0316
CGCATCAA | 0.0637
GGAGTTTA | 0.18
ACTACACA | 0.204
CCCTGAAA | 0.0693
ACATCCTC | -0.021
GAATTTCA | 0.22
ACTCTGCA | -0.0262
GTTGCGTA | 0.0843
CCCGAGGA | -0.328
AAAATTGG | 0.196
CGTAACAA | 0.226

Series 3 — technique: RNA Bind-n-Seq; molecule type: RNA; sample: in vitro; tested at: 200 nM; notes: whole 134-nt RNA, ends assumed; added: 150 mM LiCl; reference: input library; reading: higher = stronger binding; all molecules: 7-deaza-guanosine replaces G
Target: Fragile X messenger ribonucleoprotein 1, C-terminal low-complexity region (Fmr1, Mus musculus, UniProt P35922)
All sequences stand within: GGGAGUUCUACAGUCCGACGAUC … UGGAAUUCUCGGGUGUCAAGG
Sequence | log2 enrichment
UCAAGUCCUGUGCUACACAUCGUAUGUACCGAAUCGGUUUUUGGAAAGGAAAGGAAAGUAUUAUGUUACGCCGUUCGGAUCUGCACUUCC | -0.712
UUGUCCCGGAUGGGCAGCCUGCGGGCUCCCGUGGACGAGGACCGCCUGUCCCCGCUGGUGGCGGCCGACUCGCUCCUGGAGCAUGUGCGG | -1.7
UAACUUUAGAGGAGGAUCUGAUGGAUAUGGCAGUGGACGUGGAUUUGGGGAUGGCUAUCAUGGGUAUGGAGGAGGACCUGGAGGUGGCAA | -0.0764
AAGUCCUGUGCUACACAUCGUAUGUACCGAAUCGGGCCCCGGCCCCGGGCCCCGGGAAAGUAUUAUGUUACGCCGUUCGGAUCUGCACUU | -3.2
CCUGUGCUACACAUCGUAUGUACCGAAUCGGGGUUUGGGGUUUUUUUGGGGUUUUUGGGGAAAGUAUUAUGUUACGCCGUUCGGAUCUGC | -0.348
ACCAUUCAGGUGGGCAUCUUUGGGAAGUGGGGCAAGGGGGGGAUAGGGAGGGGGGUAACACUUUGGGAACAGGUGGUCCCAGGUCGUUUC | 1.32
CCUCAAGUCCUGUGCUACACAUCGUAUGUACCGAAUCGGGCGGGCGGGCGGGAAAGUAUUAUGUUACGCCGUUCGGAUCUGCACUUCCAG | -0.147
UUCCUCAAGUCCUGUGCUACACAUCGUAUGUACCGAAUCGGAGGAGGUGGAAAGUAUUAUGUUACGCCGUUCGGAUCUGCACUUCCAGCA | -2.85
GGUGGACUAUGGUGCAACAGCAGAAGAGCUGGAAGCUCACUUUCAUGGCUGUGGUUCAGUCAACCGUGUUACCAUACUGUGUGACAAAUU | -2.19
CACAGACAACACGCACCCACACAGACACAGAGGGAAGGGGUUGGGAUGGGGACAGGGUGCCCAGCAGGGCGGGGUAGGACCCCAGCCCCU | -0.206
CCUGUGCUACACAUCGUAUGUACCGAAUCGGGGUUUUUGGGGAAAAAGGGGUUUUUGGGGAAAGUAUUAUGUUACGCCGUUCGGAUCUGC | -1.74

Series 4 — technique: RNA Bind-n-Seq; molecule type: RNA; sample: in vitro; tested at: 365 nM; reference: no-protein control; reading: higher = stronger binding
Target: RNA binding protein fox-1 homolog 2, RRM domain, GST-SBP tag (RBFOX2, Homo sapiens, UniProt O43251-10, residues 100-194)
Notes: natural RNA segment, single round, ends assumed
All sequences stand within: GGGAGUUCUACAGUCCGACGAUC … UGGAAUUCUCGGGUGCCAA
Target sequence (chain): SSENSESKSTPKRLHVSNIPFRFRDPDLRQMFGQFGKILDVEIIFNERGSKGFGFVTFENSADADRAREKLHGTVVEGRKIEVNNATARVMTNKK
Sequence | RBNS enrichment (R)
CCUUGACUGCUCCUUUGGGCUGGGCCAAGGUUUGUAUGUACCACACCAUGCAUGACUCAGAUGCCCUCAGGUCCCUUUCUCUAUGGUAUGUAUACUGCUUGUGUUUGGGU | 1.93
GUUGGCUUUUAUUUGGAUUUUUUCAUCUCAGUUUUUUCUGUGGAAUCUCCUUCAUUGGCAUUGUUAUUUAAUCAUAAACGGGGCAGAUGUCUACUUGUUCAGUUUUUCAA | 0.41
UUUGAGAUGUGUAAUUCUUUUAUGGAGUUUUUAAAAAGAAUUUUCAUAUUGUUUUUUCUAACAUGGCUUCAUUAAACGUUUAAGUAUUUUAAAACUAUGUAAUAUUUGGA | 0.76
UUUAGUUCAUGAUGGCAGCUCUCUGCCUCUUCAGAAAGUAUAUAUCAUAGUGGUAAAUAAUGUAGAUUAUAUAUAUACAUAUAUAUAUAUAUAUAUGCUAUAUAUGGACA | 1.54
GUAGUCUUUAUGGUGUGUCUUUAUGACGUAAUAAGGUUCUCACGGGUUCGAUUCCUUUGUGUUUAGAGAGACCAGGUUCAGACAAUGGUAUAUAUUUUUGUUAUCAGGUG | 0.423
CUUGGUGUGAUAUGGCUGACUCCCAUGUCCUUCUUUCUUGGCUGAAGCAAACCAGUUAAUCUCAGUGUAAUUUCAUUCAGCUUUUCAUGUGCUUUGUAUUCAAUCAGAAU | 0.459
UUGGUCCUCUCCUUCCUGGAAGGCUUCCUUUUAUGUUUUGUUUUAAUCCCAAAUGUCUGAAUGUUUUGCAGUGUGUAGGGGUUUGAGCCCCUUGUUCAUUCUCCUUCCUU | 0.712
AGCUUUUUAGUCAGCAGUUUUGUAAACUCUGUAUAUAAAAUCAUUAACCACACAUUGUGGGUGAUGGGAAGACGAUUUCAGCUGACAGAGUUAAUGGCAACCAAUAAUGG | 0.292
GCACUUCUGAAAUUCCAUAUUUUGUUUGCUGGGGCCUGAGUUUGCUGGCUUUUAAAAUAUAGAUCAGAUCAAUUUACCCGACUUCAUGAAUAAUCCUAAAUUCUCUGGAA | 1.08
UUGUAUAUAGCCCAAUGCAUCUCUGGAACUCUGUCUAAACACCAGCCAUCUACUUGGAAUGGGCCCCAGGACUGUGGUAUUUGCCUGGGCCAGGAAAGGAUAAGAAAUCC | 0.968
UCUCCCUGGUUAAGCAGUUUGUACUACAGAACCCCCGAGCUGCUGUGGGUCCUACAGGUGCUUCCAUGCUCUGGUUAGACUGUCCUGUCUGAGGACACAGCCAGUUUCUU | 0.485
AGGGUGGGGGAAGGCUUUCUCUUCAAAUUCGCUAGUUGAGUUUUUAAGAUAGUGUAACAUGCUUACAUUUCUUAUCCGACAUUAACAAAUAAAACGCUGUUUUCCUAUUA | 0.385
